Published values from different studies.
Every numbered part comes from another study and shows a few of its results, in no order. Changes are numbered by the printed parent chain.

Sample 1 — target: CCNB3, cyclin fold, Cln2 fusion (human); technique: yeast growth competition, sequencing; sample: yeast; setting: strong parent motif; baseline: not given; direction: higher = stronger binding
Starting sequence: E2F1 docking peptide (human); PPVKRRLDFETDH
Change | normalised enrichment score
D8P | 0.499
T11E | 1.8
K4T | 0.359
V3W | 0.743
E10V | 1.61
R6M | 0.741
V3D | -0.273
L7Y | 0.129
P2K | 1.95
L7N | -0.077
R6K | 3.18
E10K | 1.72
K4P | 0.943
P2C | 2.21
V3M | 0.546
R5S | -0.204
F9W | 0.807
E10Y | 1.74

Sample 2 — technique: RNA Bind-n-Seq; form: RNA; sample: in vitro; tested at: 200 nM; setting: whole 134-nt RNA, ends assumed; with: 150 mM LiCl; baseline: input library; direction: higher = stronger binding; all molecules: 7-deaza-guanosine replaces G
Target: Fragile X messenger ribonucleoprotein 1, C-terminal low-complexity region (Fmr1, Mus musculus, UniProt P35922)
All sequences stand within: GGGAGUUCUACAGUCCGACGAUC … UGGAAUUCUCGGGUGUCAAGG
Sequence | log2 enrichment
ACCAUGCAGGUGGGCAUCUUUGGGAAGUGGGGCAAGGGGGGGAUAGGGAGGGGGGUAACACUUUGGGAACAGGCGGUCCCAGGUCGUUUC | 1.4
CCUCAAGUCCUGUGCUACACAUCGUAUGUACCGAAUCGGGUGGGUGGGGUGGAAAGUAUUAUGUUACGCCGUUCGGAUCUGCACUUCCAG | -1.19
UGAACAGCUCUGCGCUUUUUGUUACUGUGGGGAAAAAAGUUCCUUAGGACAAGGAGACUUAAAACAAUUCAGAAUAACGCCUGGAUUUAU | -2.51
AGUCCUGUGCUACACAUCGUAUGUACCGAAUCGGGCCCCCGGCCCCCGGCCCCCGGGGAAAGUAUUAUGUUACGCCGUUCGGAUCUGCAC | -0.377
CACAGACAACACGCACCCACACAGACACAGAGGGAAGGGGUUGGGAUGGGGACAGGGUGCACAGCAGGGCGGUGUAGGACCCCAGCCCCU | 0.301
UUCCGCUGUCUUUUCUGUCUACAGUUUGCGAUCCCCGCGUCCAGGAUGGAGCAGCUGAACGAACUGGAGCUGCUGAUGGAGAAGAGUUUU | -2.54
CUGUGCUACACAUCGUAUGUACCGAAUCGGGGAAAAAGGGGAAAAAAAGGGGAAAAAGGGGAAAGUAUUAUGUUACGCCGUUCGGAUCUG | 1.12
AGUCCUGUGCUACACAUCGUAUGUACCGAAUCGGGAAAGGGUUUGGGUUUUUUUGGGAAAGUAUUAUGUUACGCCGUUCGGAUCUGCACU | -2.22
GUCCUGUGCUACACAUCGUAUGUACCGAAUCGGGUUUUUUUGGGUUUUUGGGAAAGGGAAAGUAUUAUGUUACGCCGUUCGGAUCUGCAC | -0.773
CAAGUCCUGUGCUACACAUCGUAUGUACCGAAUCGGGUGGGUUUUUGGGUUUGGGAAAGUAUUAUGUUACGCCGUUCGGAUCUGCACUUC | -1.51
UGGCCCUGGUGGCAUGCGGGGAGGAAGAGGUGGCCCCAUGGAUCGUGGUGGUCCCGGUGGAAUGUUCAGAGGUGGCCGUGGUGGAGACAG | 0.21

Sample 3 — technique: RNA Bind-n-Seq; form: RNA; sample: in vitro; tested at: 100 nM; baseline: input RNA pool; direction: higher = stronger binding
Target: RING finger protein unkempt homolog, zinc fingers 1-6, SBP tag (UNK, Homo sapiens, UniProt Q9C0B0, residues 30-357)
Chain of UniProt Q9C0B0 (30-357, looked up): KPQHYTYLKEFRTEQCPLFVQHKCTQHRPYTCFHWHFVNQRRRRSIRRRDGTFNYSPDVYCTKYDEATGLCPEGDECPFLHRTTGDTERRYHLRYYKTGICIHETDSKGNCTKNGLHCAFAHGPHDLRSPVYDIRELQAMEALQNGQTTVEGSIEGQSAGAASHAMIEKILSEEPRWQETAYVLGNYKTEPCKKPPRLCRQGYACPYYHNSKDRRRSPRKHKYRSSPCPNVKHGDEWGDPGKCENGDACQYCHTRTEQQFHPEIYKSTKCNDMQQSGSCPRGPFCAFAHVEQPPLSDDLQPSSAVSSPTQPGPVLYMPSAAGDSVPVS
Setting: RNA with constant flanks, vertebrate orthologous sites, ends assumed
All sequences stand within: GGGAGUUCUACAGUCCGACGAUC … CAACAGAGGAUUGAGCAUCA
Sequence | bound/input enrichment [ratio]
UGGGUUACUCCUAUUAUUAUCAAGUAGCUGGAAUUGUGAAGGUCGGAGUAGUUAGAUCUUUAGCUUUUAUUCCUUAUUUUUUUGUAUUACUCUCCAUGUGUAUAAAUUAUUGAUCAUGUU | 4.54
CAUUGUACUACAGAAAUUUGUCGCGUUUAUAGACUAGCCGCAGUGAUAACUGCUCUGUGCUAGUAGAAUUCCUCCACUAUUAGCUUUCAAGUUUUUGGUUUUGUCUGCUACUUGAAACCA | 0.4
ACAGGAGUAGUACAGGCUGUUUGAUCUUUGGAGAAAUGAGCUUUGCCUUUUAUAUUUAAAUAGGAUACUUUUAUAUGAUGGGUGCUUUGAGUGUGAAUGCAGCAGGCUCUCCAUUUCAGA | 1.23
GUGGCACCCCCUGUGAGAGGGAGUGGGGGGAGCCCAGGAUGACCCUCAGUUGUUCCAAUCCAGUAUUUUUUCCUUUUUAAAAAAAAAAAAAUUACUGUAUUUAUUAUGACGAUGGUGACU | 0.537
UCUCCUCACACUCUUACAUGAGUGGAUUAUUAUUUUCUUUUUUUUUUUACAUUUUUGUAUAGAAAACAAAUUCAUUUAAACAAACUUAUUAUUAUUAUUUUUUACAAAAUAUAUAUAUGG | 3.98
AGCUUCAGGUGAUAUUUGGCCUGGUCUUUCAGCAUAUGAUAACAGCCCAAGGUCUCCUCAUAGUCCCUCUAUUGCCUCCCCACCUAGUCAGAGUUCUUCAUGUUCUGAUGCUCACUUACU | 0.603
AAUCAGUAGAAUUACAAAAUACUAAAGUUGCAGUUGAAAGGAUAUCCAAGUAUGUGUUGGUAGUUACUAAAAGAAUUAUAGCUGUUAUUGCCUUGUAUUUAUAGCCCUCGUUUCAGGUUU | 0.924
GACCUCCUGAACUUCUAGCUUUCAAGCUGAGGCUGUUUUAGAUACUGGUUUUAUUUUCUUUACCAUUUUCCUGCCUUUCUUCCCCUGUUCCCAAGGUUUGACUCAUGGAUGUUACUCUUC | 0.72
CCUGUGUAGCAAUUAGAUGAUCUCCCCCCACCAUUUCCUUCGAAAAAAGAAAUGCCAAAAUAGAUUUCUUACCCAUCUGAUUGGACUCUUCUGGGUUUAUUAUUAUUUUUUAUAUAUGCA | 2.93
CCUGUGCAGCAAUUAGAUAUGCUCCCCCCACCUUUUCUUUCAAGAAAAUAAAUGCCCAAAUAGAUUGCUUACCCAUCUGAUUGUACUGUUCUGGGUUUACUAUUAUUUUUUACGUAUGUG | 1.59
CAGUUUGUAUGUACAUUAUUCAUAUUCCUCUCUGUUGUGUUUUGGGGGGAAAAGACAUUUUAGCCUUUUUUAAAAGUUACUGAUUUAAUUUCAUGUUAUUUGGUUGCAUGAGGUUGCCCU | 1.26

Sample 4 — technique: protein-binding microarray; form: double-stranded DNA, one strand shown; sample: in vitro; tested at: 250 nM; setting: 60-bp whole probe; with: salmon DNA 0.4 mg/ml; baseline: random background probes; direction: higher = stronger binding; all sequences stand within: GCCTAGCAC … GTCTTGATTCGCTTGACGCTGCTG
Target: Interferon regulatory factor 7, full length, phosphomimetic (IRF7, Homo sapiens, UniProt Q92985, residues 1-503, S101K/S471D/S472D/S475D/S476D/S477D/S483D/S484D/S487D)
Residues (chain): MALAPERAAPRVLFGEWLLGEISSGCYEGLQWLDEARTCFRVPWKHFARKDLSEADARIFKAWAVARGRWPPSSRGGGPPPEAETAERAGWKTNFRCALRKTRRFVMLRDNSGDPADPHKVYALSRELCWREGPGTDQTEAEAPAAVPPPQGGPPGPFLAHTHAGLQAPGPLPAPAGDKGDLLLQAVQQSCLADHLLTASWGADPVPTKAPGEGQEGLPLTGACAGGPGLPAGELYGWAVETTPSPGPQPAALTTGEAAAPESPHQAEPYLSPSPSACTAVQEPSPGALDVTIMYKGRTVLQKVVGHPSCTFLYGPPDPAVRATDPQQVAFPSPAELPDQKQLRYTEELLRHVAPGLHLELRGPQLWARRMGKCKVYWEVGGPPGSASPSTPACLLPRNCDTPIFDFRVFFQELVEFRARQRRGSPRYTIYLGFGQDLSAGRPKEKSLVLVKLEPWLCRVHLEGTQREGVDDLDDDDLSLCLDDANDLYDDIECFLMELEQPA
Sequence | log fluorescence [z-score]
TTCGCTTTCTTTACCACATTGTGCTAG | 1.11
TTAGAACTGGACTTTCGGTTAGTGCTA | 0.982
GACGGTATCGGACTGGGTACGTGCTAG | -0.193
TTAGGTCTCGTTCTCCTTTAGTGCTAG | 3.72
GACGATTTCAGTTCGGAGACGTGCTAG | 0.154
TCAGTTTTTCATTTTGTACTGTGCTAG | 1.99
GTCGGTATCGGGTTTCGGGACGTGCTA | 3.84
TCACCTTTGCTTTCCTGACTGTGCTAG | 0.401
TTCTTTACCACATTCTCTGCGTGCTAG | 1.4
TCATATATCTTATCCTAACTGTGCTAG | 1.21
GACGGATTGGACTATCGGGACGTGCTA | -0.411
GACGGTTTCCTTCTCCTGAAGTGCTAG | 2.98
GTGAGTTTGACATCTTCATCAGTGCTA | -0.383
TCATCTTTCTGTCAGTTACTGTGCTAG | 0.792
TCAAGTCTGCAACATGGGACTGTGCTA | -0.524
TTAGGTTCCCTTTTCCTTAAGTGCTAG | 4.48
TCAAAAATCCCATTAAAACTGTGCTAG | 0.375
TTAGATATCGGGACTTGATTAGTGCTA | -0.0188
GACGATCTCAGACTGGTGACGTGCTAG | -0.288
GACGATATCGGGGCTGGAGACGTGCTA | -0.633
TCAACTTTCCAAAGCGTACTGTGCTAG | 0.645
GACGATGTCAGTTTCGAGACGTGCTAG | 3.31
TTAGGTGTCGGTATCGGTTAGTGCTAG | 0.606
TTAGAACTGGGGTTCCGATTAGTGCTA | 0.18
CGACATCTGCAAGATCCACAAGTGCTA | -0.0793

Repeated from above (sample 4):
Sequence | log fluorescence [z-score]
GACGATTTCAGTTCGGAGACGTGCTAG | 0.154
TCAGTTTTTCATTTTGTACTGTGCTAG | 1.99
GTCGGTATCGGGTTTCGGGACGTGCTA | 3.84
TCACCTTTGCTTTCCTGACTGTGCTAG | 0.401
TTCTTTACCACATTCTCTGCGTGCTAG | 1.4
TCATATATCTTATCCTAACTGTGCTAG | 1.21
